Measurements from different studies.
A part holds a random share of what one study measured. Positions count from the first letter of the parent shown.

Study 1 — target: DBP, bZIP domain (human); technique: DHFR protein complementation; sample: yeast; baseline: wild-type JUN-FOS pair; direction: higher = stronger binding
Notes: single substitutions, most at no-binding floor
Parent: JUN, bZIP domain (human); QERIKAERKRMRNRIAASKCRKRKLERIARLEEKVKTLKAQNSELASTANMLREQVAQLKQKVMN; partner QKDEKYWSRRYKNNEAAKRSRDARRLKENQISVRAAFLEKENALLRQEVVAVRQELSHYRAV
| Change | binding fitness |
| --- | --- |
| A29Y | -1.48 natural log |
| T48L | -1.51 natural log |
| E32H | -1.29 natural log |
| I28R | -1.29 natural log |
| E44M | -1.46 natural log |
| M51T | -1.32 natural log |
| L52F | -1.47 natural log |
| A46T | -1.58 natural log |
| E54W | -1.5 natural log |
| I28L | -1.54 natural log |
| R30F | -1.43 natural log |
| E33A | -1.37 natural log |
| V35Y | -1.4 natural log |
| L45F | -1.51 natural log |
| K34P | -1.46 natural log |

Study 2 — target: CCNF, cyclin fold, Cln2 fusion (human); technique: yeast growth competition, sequencing; sample: yeast; notes: weak parent motif; baseline: not given; direction: higher = stronger binding
Parent: RP1L1 docking peptide (human); TLGLGPLSFTLED
| Change | normalised enrichment score |
| --- | --- |
| T1A | -0.461 |
| L7A | -0.839 |
| G5A | -0.697 |
| L4A | -0.55 |
| E12A | -0.53 |
| P6A | -0.774 |
| L11A | -0.576 |

Study 3 — technique: RNAcompete; form: RNA; sample: in vitro; concentration: 20 nM; notes: 7-mer, probes averaged, single round; baseline: mean of 7-mers; direction: higher = stronger binding
Target: PABPC1L2, full length, GST fusion (mouse, UniProt A0ABA7IW68)
Target sequence (chain): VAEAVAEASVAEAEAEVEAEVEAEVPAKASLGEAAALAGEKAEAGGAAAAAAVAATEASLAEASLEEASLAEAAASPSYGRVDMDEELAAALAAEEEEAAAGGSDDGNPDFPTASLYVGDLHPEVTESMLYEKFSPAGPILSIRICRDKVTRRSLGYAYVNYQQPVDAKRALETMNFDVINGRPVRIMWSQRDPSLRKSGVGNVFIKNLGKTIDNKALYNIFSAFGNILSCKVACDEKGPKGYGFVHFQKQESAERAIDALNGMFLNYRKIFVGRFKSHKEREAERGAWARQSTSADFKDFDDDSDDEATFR
| Sequence | 7-mer Z-score |
| --- | --- |
| ACGCUUC | -0.257 |
| UUAUAAC | -0.0754 |
| CGUAAUU | -0.278 |
| UAAGUUG | -0.222 |
| GUCAUAC | -0.162 |
| UCCUCUG | -0.407 |
| AUUCGUU | -0.378 |
| CCGCGGU | -0.302 |
| CUCGAGC | -0.356 |
| GUCCGGC | -0.266 |
| AUACUUC | -0.137 |
| UAAUGGU | -0.195 |
| UACUCCG | -0.191 |
| AUUCGGU | -0.164 |
| GCCGUGU | -0.267 |
| AAUACCU | 0.119 |
| AAUGUCU | -0.159 |
| UUUGCUU | -0.441 |
| AGUUAGC | -0.15 |

Study 4 — technique: protein binding microarray; form: double-stranded DNA, one strand shown; sample: in vitro; concentration: not given; baseline: not given; direction: higher = stronger binding
Target: Histone acetyltransferase KAT6A, winged helix 1, GST fusion (KAT6A, Homo sapiens, UniProt Q92794, residues 1-85)
Notes: 8-mer, flanks averaged, mean of 2 arrays, mostly near background
Construct (chain): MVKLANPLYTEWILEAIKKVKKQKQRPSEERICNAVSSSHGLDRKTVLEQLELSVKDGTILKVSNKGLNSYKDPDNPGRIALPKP
| Sequence | E-score |
| --- | --- |
| ACGCTCGG | 0.288 |
| CGGCTGAG | 0.0698 |
| CAGGCACC | -0.117 |
| GCTCTGCA | -0.0918 |
| CACCAGGA | -0.154 |
| AAGAACCG | -0.047 |
| ATAATCCG | 0.00556 |
| ACCCTCAG | -0.201 |
| GGACAAAC | -0.0933 |
| CCCGCAAG | 0.208 |
| CCCAAGAC | -0.244 |
| CCAAGATC | -0.212 |
| ACGTTGGG | -0.317 |
| CCGTATCG | 0.332 |
| CTTCTCAA | -0.0937 |
| GAGACATA | -0.0469 |
| GACTTCGC | 0.0292 |
| CACTCTCA | -0.128 |
| AATCCATC | -0.245 |
| ACCGGCTC | 0.162 |
| AGGGCGCA | 0.251 |
| CACATGTC | -0.0675 |
| TTACGTAA | -0.136 |
| GAGGTAGA | -0.116 |

Study 5 — technique: universal PBM; form: double-stranded DNA, one strand shown; sample: in vitro; concentration: not given; direction: higher = stronger binding
Target: Sal-like protein 4, full length isoform B (SALL4, Homo sapiens, UniProt Q9UJQ4-2, residues 1-616)
Notes: 8-mer, flanks averaged, mean of replicates
| Sequence | E-score |
| --- | --- |
| AATCACGG | 0.0857 |
| GATATTAA | 0.384 |
| GAGGGAAC | -0.312 |
| TCAATGGA | -0.00996 |
| CGGAAAGA | -0.162 |
| CCCGGATA | -0.112 |
| ATGTAAGC | 0.17 |
| AATGTAGC | 0.0883 |
| GTACATAA | 0.285 |
| CCTAGAGC | -0.231 |
| CACAGCGG | -0.222 |
| CCATTCTA | 0.0837 |
| ACCTCAGG | -0.357 |
| ACCCAAGT | 0.026 |
| ACCAGCGC | -0.193 |
| CACAAGTC | 0.0279 |
| CGTGAGTA | -0.00432 |
| AACACGTC | -0.0241 |
| CGTGGATC | -0.263 |
| CGCGTTTC | -0.254 |

Study 6 — technique: DHFR PCA, deep sequencing; sample: yeast; added: (+)-ABA 17 µM; baseline: wild-type fitted maximum; direction: higher = stronger binding
Target: ABI1, truncated, D143A, DHFR fusion (Arabidopsis thaliana)
Notes: methotrexate growth selection, single substitutions
Parent: PYL1, truncated, DHFR fusion (Arabidopsis thaliana); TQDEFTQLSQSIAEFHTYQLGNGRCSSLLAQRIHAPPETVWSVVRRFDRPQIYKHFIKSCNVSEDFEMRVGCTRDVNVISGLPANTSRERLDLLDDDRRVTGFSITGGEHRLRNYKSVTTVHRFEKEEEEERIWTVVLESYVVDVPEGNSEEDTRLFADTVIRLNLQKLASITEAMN; partner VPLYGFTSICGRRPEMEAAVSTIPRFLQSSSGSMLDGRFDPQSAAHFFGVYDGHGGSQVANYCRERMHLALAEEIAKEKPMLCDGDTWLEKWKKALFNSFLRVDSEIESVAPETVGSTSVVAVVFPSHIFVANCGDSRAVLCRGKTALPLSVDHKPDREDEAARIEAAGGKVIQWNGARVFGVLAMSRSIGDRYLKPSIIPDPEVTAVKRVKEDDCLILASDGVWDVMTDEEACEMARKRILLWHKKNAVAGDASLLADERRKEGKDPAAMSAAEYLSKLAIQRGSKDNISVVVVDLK
| Change | relative binding score |
| --- | --- |
| Q10S | 85.8% |
| R46M | 71.8% |
| R32C | 70.7% |
| V161Y | 24.1% |
| H55S | 93.3% |
| T106C | 77.6% |
| E109S | 81.8% |
| T6H | 88.5% |
| R24P | 12% |
| E174L | 32.8% |
| V40I | 44.9% |
| K116I | -0.442% |
| E14D | 68.1% |
| T106G | -8.18% |
| Y53W | 77.8% |
| S9D | 78.3% |
| E128Y | 76% |
| V121R | -0.62% |
| V143P | -0.175% |
| I172M | 65.4% |

Study 7 — technique: RNA Bind-n-Seq; form: RNA; sample: in vitro; concentration: 200 nM; notes: whole 134-nt RNA, ends assumed; added: 150 mM LiCl; baseline: input library; direction: higher = stronger binding; all molecules: 7-deaza-guanosine replaces G
Target: Fragile X messenger ribonucleoprotein 1, C-terminal low-complexity region (Fmr1, Mus musculus, UniProt P35922)
| Sequence | log2 enrichment |
| --- | --- |
| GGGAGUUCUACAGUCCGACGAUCGCAGGAAGUAAAAACAAAUGGAAAUGCUUCGGAUAGUGGCAGGGGUGGGGGUUGCUAAGGAAAUGGUGGGAUGGGAGUGGGUAAAGAGUUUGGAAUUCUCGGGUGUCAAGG | 1.39 |
| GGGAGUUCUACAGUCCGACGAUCUCCUGUGCUACACAUCGUAUGUACCGAAUCGGGUUUUUUUGGGAAAGGGUUUUUUUGGGAAAGUAUUAUGUUACGCCGUUCGGAUCUGCAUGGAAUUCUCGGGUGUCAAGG | -1.77 |
| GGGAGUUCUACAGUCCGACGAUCUGGGAGGUGGAUAUUGUUUAUUUUUUUAGCUCAUUUCCAGGGGUGGGAAUUUUUUUUUAAUAUGUGUCAUGAAUAAAGUUGUUUUUGAAAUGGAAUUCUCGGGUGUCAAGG | -0.455 |
| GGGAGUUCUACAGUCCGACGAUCACCAUGCAGGUGGGCAUCUUUGGGAAGUGGGGCAAGGGGGGGAUAGGGAGGGGGGUAACACUUUGGGAACAGUUGGUCCCAGGUCGUUUCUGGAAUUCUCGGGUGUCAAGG | 1.34 |
| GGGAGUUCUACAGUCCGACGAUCCAAGUCCUGUGCUACACAUCGUAUGUACCGAAUCGGGAAAAGGAAAAGGAAAAGGGAAAGUAUUAUGUUACGCCGUUCGGAUCUGCACUUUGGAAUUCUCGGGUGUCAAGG | -1.38 |
| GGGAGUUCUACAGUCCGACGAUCGAGGGAGUUUGCAGAUACCUCAGGAUUCGUGACAAUGCCUUUAAAGAUCCAGGAGAGAUGUUCAGCUACUAGGAACUGCUAGCAAGUAUAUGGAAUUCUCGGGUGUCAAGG | -0.903 |
| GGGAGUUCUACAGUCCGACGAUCAAGUCCUGUGCUACACAUCGUAUGUACCGAAUCGGGAAAGGGAAAAAGGGAAAGGGAAAGUAUUAUGUUACGCCGUUCGGAUCUGCACUUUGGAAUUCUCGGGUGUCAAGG | -0.498 |
| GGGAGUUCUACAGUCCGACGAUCCACAGACAACACGCACCCACACAGAAAAAGAGGGAAGGGGUUGGGAUGGGGACAGGGUGCACAGCAGGGCGGGGUAGGACCCCAGCCCCUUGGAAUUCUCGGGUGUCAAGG | 0.518 |
| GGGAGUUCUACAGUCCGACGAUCUGGCCCUGCUGGCAUGCGGGGAGGAAGAGGUGGCCUCAUGGAUCGUGGUGGUCCCGGUGGAAUGUUCAGAGGUGGCCGUGGUGGAGACAGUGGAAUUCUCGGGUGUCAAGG | 0.0625 |
| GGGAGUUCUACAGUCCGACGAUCACCAUGCAGGUGGGCAUCUUGGGGAAGUGGGGCAAGGGGGGGAUAGGGAGGGGGGUAACACUUUGGGAACAGGUGGUCCCAGGUCGUUUCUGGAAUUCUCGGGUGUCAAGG | 1.5 |
| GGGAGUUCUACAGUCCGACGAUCUAACUUUCGAGGAGGAUCUGAUGGAUAUGGCAGUGGACGUGGAUUUGGGGAUGGCUAUAAUGGGUAUGGAGGAGGACCUGGAGGUGGCAAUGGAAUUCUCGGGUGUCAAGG | 0.443 |

For quick reference, copied from above (study 5):
| Sequence | E-score |
| --- | --- |
| CACAAGTC | 0.0279 |
| ACCTCAGG | -0.357 |
| ACCAGCGC | -0.193 |
| CCCGGATA | -0.112 |
| GAGGGAAC | -0.312 |
| CACAGCGG | -0.222 |
| CCTAGAGC | -0.231 |
| CCATTCTA | 0.0837 |
| AATGTAGC | 0.0883 |
| GATATTAA | 0.384 |
| CGTGGATC | -0.263 |
| GTACATAA | 0.285 |
| CGCGTTTC | -0.254 |
| ACCCAAGT | 0.026 |
| TCAATGGA | -0.00996 |
| ATGTAAGC | 0.17 |
| AACACGTC | -0.0241 |
